Measured values from different studies.
Protocols differ between the studies behind these lines. Values joined by “and” are separate records of one study, mostly repeats; a detail may differ.
Target: Dual specificity protein kinase TTK (TTK, Homo sapiens, UniProt P33981)

COc1cc(Nc2nc(C)cc(-c3cnn4nc(OC)ccc34)n2)cc(C(F)(F)F)c1 — remaining binding (binding, competition with immobilised ligand; 1 µM): 90%
C=CC(=O)Nc1cccc(-c2cnc3[nH]cc(C(=O)NC(C)(C)C)c3n2)c1 — inhibition (kinase activity; 0.1 µM): 0% and -1%
C=CC(=O)N1CCCC(n2c(=O)c3ncccc3n(Cc3ccc(Oc4ccccc4)cc3)c2=O)C1 (stereo not shown) — remaining binding (cell-free assay, competition with immobilised ligand; 1 µM): 99%
CC(C)=CC1OC(C)(C)C2C=C3C(=O)C(Cl)=CC(O)C3C3C(O)C4OC4C(=O)C132 (stereo not shown) — remaining binding (cell-free assay, competition with immobilised ligand; 10 µM): 88%
CNC(=O)C1CCN(c2cc(C)c(F)cc2NC(=O)c2ccc(-c3cc(O)ccc3C)c(C)c2)CC1 — remaining binding (binding, competition with immobilised ligand; 1 µM): 100%
CN1C[C@@H](c2c[nH]c3cc(Br)ccc23)NC[C@@H]1c1c[nH]c2cc(Br)ccc12 — remaining activity (enzyme activity, inhibitor; 10 µM): 102%
Cc1cccc(O[C@H]2CCC[C@@H](C(C)CNCc3ccncc3)C2)c1 (relative stereo) — inhibition (enzyme activity, inhibitor; 10 µM): -15%
Cc1ccc(C(=O)Nc2ccc(CN3CCN(C)CC3)c(C(F)(F)F)c2)cc1C#Cc1cnc2cccnn12 — upper asymptote (target engagement, NanoBRET; human cells): 520
c1ccc2c(Nc3cc(C4CCC4)[nH]n3)nc(Nc3ccc4nc[nH]c4c3)nc2c1 — remaining activity (enzyme activity, inhibitor; 0.25 µM): 40%
NC(=O)[C@@H](O)C[C@H]1CCc2sc3ncnc(O[C@H]4CC[C@H](N5CCOCC5)CC4)c3c21 — inhibition (enzyme activity, inhibitor; 10 µM): 0%
C=CC(=O)N1Cc2nc(-c3cc(-c4cc(Cl)cnc4Cl)c(F)cc3F)n(-c3ccncn3)c2C1 — inhibition (cell-free assay, inhibitor; 1 µM): -10.4%
COc1c(Cl)cccc1Nc1c(-c2ccncc2C#C[C@@]2(C)CCCN2C(=O)/C=C/CN(C)C)[nH]c2c1C(=O)NCC2 — remaining binding (binding, competition with immobilised ligand; 3 µM): 36%
Cc1ccc(-c2c(/C=C(\C#N)C(=O)NC(C)C)n(CCCO)c3ncnc(N)c23)cc1 — remaining binding (cell-free assay, competition with immobilised ligand; 1 µM): 96%
CN1CCN(Cc2ccc(-c3ccc(CO[C@H]4CCC[C@@H]4NC(=O)c4cc(-c5cnn(C)c5)cnc4N)cc3)cc2)CC1 — inhibition (enzyme activity, inhibitor; 0.1 µM): 8%
O=C(Cc1ccc(OCc2ccccc2)cc1)NC1(C(=O)O)CCN(C(=O)c2ccc(-c3cccc(Cl)c3)cc2)CC1 — activity vs control (enzyme activity, inhibitor; 10 µM): 96%
COC(=O)[C@@]1(C)C=C(C(=O)Nc2cccc(C(=O)Nc3ccc(Nc4nccc(-c5cccnc5)n4)c(C)c3)c2)C(=O)CC1 — remaining activity (enzyme activity, inhibitor, radiometric; 1 µM): 77%

For quick reference, copied from above:
Cc1ccc(-c2c(/C=C(\C#N)C(=O)NC(C)C)n(CCCO)c3ncnc(N)c23)cc1 — remaining binding (cell-free assay, competition with immobilised ligand; 1 µM): 96%
CN1CCN(Cc2ccc(-c3ccc(CO[C@H]4CCC[C@@H]4NC(=O)c4cc(-c5cnn(C)c5)cnc4N)cc3)cc2)CC1 — inhibition (enzyme activity, inhibitor; 0.1 µM): 8%
O=C(Cc1ccc(OCc2ccccc2)cc1)NC1(C(=O)O)CCN(C(=O)c2ccc(-c3cccc(Cl)c3)cc2)CC1 — activity vs control (enzyme activity, inhibitor; 10 µM): 96%
